# Results gathered from unrelated publications.
# Lines come from different studies, so protocols differ.
# Target: Serine/threonine-protein kinase Sgk3 (SGK3, Homo sapiens, UniProt Q96BR1)
# Sequence (Q96BR1 1-496, as in one of the studies): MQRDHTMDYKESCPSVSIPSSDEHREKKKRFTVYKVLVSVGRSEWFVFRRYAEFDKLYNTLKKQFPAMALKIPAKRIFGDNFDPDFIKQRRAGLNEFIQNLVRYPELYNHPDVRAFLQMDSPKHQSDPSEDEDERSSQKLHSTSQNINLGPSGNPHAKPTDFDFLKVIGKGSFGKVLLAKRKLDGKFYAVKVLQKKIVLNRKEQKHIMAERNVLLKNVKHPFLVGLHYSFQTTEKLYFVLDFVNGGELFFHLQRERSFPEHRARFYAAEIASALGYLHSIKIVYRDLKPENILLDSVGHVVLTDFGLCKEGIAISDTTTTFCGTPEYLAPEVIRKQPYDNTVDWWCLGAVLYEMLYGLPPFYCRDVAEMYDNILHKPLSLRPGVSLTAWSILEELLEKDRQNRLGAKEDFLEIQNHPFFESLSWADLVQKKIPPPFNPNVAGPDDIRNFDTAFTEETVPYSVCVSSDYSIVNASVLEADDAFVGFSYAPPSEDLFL
assay,system,setting,how to read,endpoint,value,Structure (SMILES)
"ATP-site probe binding, ActivX profiling",THP-1 cell lysate,"0.04 mM, Lys2 site",,inhibition,6.7%,CC[C@@H]1[C@H](F)C(=O)N[C@@H]1COc1nccc2cc(C(N)=O)c(OC)cc12
"probe labelling, KiNativ","Huh-7, live cells","1 µM, Lys1 site, peptide FYAVKVLQK",,inhibition,-81.5%,CNc1cc(Oc2cc(C(=O)Nc3cc(N4CCN(C)CC4)cc(C(F)(F)F)c3)ccc2C)ncn1
radiometric kinase,,15 nM,relative to: SGK3 over ULK1,relative inhibition,0.0455,CC(C)[C@H](NC(=O)c1cc(-c2cnn3cc(-c4ccc(OCCN5CCCCC5)cc4)cnc23)cs1)C(F)(F)F
kinase activity,,"10 µM, with: 10 µM ATP",,remaining activity,108%,COc1cc(F)ccc1-c1ncnc(Nc2cccc(C[S@](C)(=N)=O)c2)n1
KINOMEscan,,1 µM,,remaining binding,99%,C=CC(=O)N1CCC(COCC(=O)N2CCN(c3nc(-c4cnc(N)nc4C(F)F)nc(N4CCOC[C@@H]4C)n3)CC2)CC1
"kinase activity, KinaseProfiler",,"0.03 µM, species human",relative to: control,remaining activity,98%,Cc1cc(Nc2cc(N3CCN(C)CC3)nc(Sc3ccc(NC(=O)C4CC4)cc3)n2)[nH]n1
"kinase activity, inhibitor",,1 µM,relative to: untreated control,remaining activity,96%,CNc1ncc2c(/C=C/C(=O)N3CCC(OC)CC3)nn(Cc3cccc(C(F)(F)F)c3)c2n1
kinase activity,,"1 µM, human enzyme, with: ATP 10 µM",relative to: DMSO control,remaining activity,108%,COc1cc(-c2cncc3c2CN(C)Cc2cc(N4CCNCC4)ccc2-3)cc(OC)c1OC

# A few entries again:
assay,system,setting,how to read,endpoint,value,Structure (SMILES)
"ATP-site probe binding, ActivX profiling",THP-1 cell lysate,"0.04 mM, Lys2 site",,inhibition,6.7%,CC[C@@H]1[C@H](F)C(=O)N[C@@H]1COc1nccc2cc(C(N)=O)c(OC)cc12
